Assay results of several laboratories.
Parts stem from different laboratories: compare values within a part only.

Block 1
Target: Histone acetyltransferase KAT6A, both winged helices, GST fusion (KAT6A, Homo sapiens, UniProt Q92794, residues 1-181)
Technique: protein binding microarray
Molecule type: double-stranded DNA, one strand shown
Matrix: in vitro
Concentration: not given
Setting: 8-mer, flanks averaged, mean of 2 arrays, mostly near background
Reference: not given
Direction: higher = stronger binding
Residues (chain): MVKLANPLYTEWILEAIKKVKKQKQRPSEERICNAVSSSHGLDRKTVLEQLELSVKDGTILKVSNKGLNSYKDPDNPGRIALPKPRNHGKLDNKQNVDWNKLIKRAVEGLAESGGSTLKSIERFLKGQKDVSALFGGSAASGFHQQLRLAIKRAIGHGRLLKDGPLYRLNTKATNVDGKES
| Sequence | E-score |
| --- | --- |
| TAATGTCA | -0.169 |
| GAAGGCTA | -0.0989 |
| GCGATTTA | 0.137 |
| GCCCAGAC | -0.192 |
| ATTGGTTG | -0.177 |
| AATGATGA | -0.0712 |
| CCAATCGC | -0.0436 |

Block 2
Target: Interferon regulatory factor 5, full length, phosphomimetic (IRF5, Homo sapiens, UniProt Q13568-2, residues 1-514, K96S/S451D/S453D/S456D/S462D)
Technique: protein-binding microarray
Molecule type: double-stranded DNA, one strand shown
Matrix: in vitro
Concentration: 250 nM
Setting: 60-bp whole probe
With: salmon DNA 0.4 mg/ml
Reference: random background probes
Direction: higher = stronger binding
Constant ends, left off below: GCCTAGCAC … GTCTTGATTCGCTTGACGCTGCTG
| Sequence | log fluorescence [z-score] |
| --- | --- |
| TTAGATTTCGGGACTCGATTAGTGCTA | 2.83 |
| TTAGGACTGGACACTGGGGTAGTGCTA | -0.56 |
| TCAGTTGTACTTTCTATCACTGTGCTA | 3.85 |
| TTAGGTTTCCGGTATCGGTTAGTGCTA | 5.75 |
| GGCGATTTCAGACTGGAGACGTGCTAG | -0.0666 |
| TCCTTTTAATTTTTAACGAGGTGCTAG | 0.515 |

Block 3
Target: Centromere-binding protein 1, full length, His-tagged (CBF1, Saccharomyces cerevisiae, UniProt P17106, residues 1-351)
Chain of UniProt P17106 (whole entry, looked up): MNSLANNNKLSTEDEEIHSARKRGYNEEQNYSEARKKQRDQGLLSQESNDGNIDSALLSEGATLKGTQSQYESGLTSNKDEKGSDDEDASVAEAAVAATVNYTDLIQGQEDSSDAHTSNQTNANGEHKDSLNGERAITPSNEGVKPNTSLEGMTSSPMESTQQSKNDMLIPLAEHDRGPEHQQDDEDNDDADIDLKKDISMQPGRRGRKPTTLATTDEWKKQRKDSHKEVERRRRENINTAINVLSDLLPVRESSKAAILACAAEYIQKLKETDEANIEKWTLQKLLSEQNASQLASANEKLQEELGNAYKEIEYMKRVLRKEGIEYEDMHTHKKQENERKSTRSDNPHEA
Technique: competition protein-binding microarray
Molecule type: double-stranded DNA, one strand shown
Matrix: in vitro
Concentration: 2 µM
Setting: whole 60-bp probe, lowest competitor level
With: Pho4 competitor, 0.05 µM
Direction: higher = stronger binding
| Sequence | fluorescence intensity |
| --- | --- |
| AAGGATACACAAAGGCAGGTGATTCCTGACTACCAAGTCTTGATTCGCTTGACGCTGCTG | 119 a.u. |
| CAAGGTTTTCTTTGCCACGCTCAAGCATTCATCGTTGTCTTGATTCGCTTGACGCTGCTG | 76.6 a.u. |
| GTCTTGTCTCATTGTATGGTGGGTGTCCCCACTTCAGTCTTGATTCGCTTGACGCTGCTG | 79 a.u. |
| AGCAGCAGAGTCATCTTCGTGCTAAACAGTTGGTACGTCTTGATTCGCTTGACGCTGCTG | 78.9 a.u. |
| CGTCCTAGTGATTGTGTGGTGGGTGCCATGAGGAAGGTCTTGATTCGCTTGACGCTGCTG | 91.8 a.u. |
| CGGGGTTAAGTTTTTCACGTGATTTGCTTGCAGCAGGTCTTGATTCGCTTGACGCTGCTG | 4000 a.u. |
| TGTGGATCATATCACCACGTGTTTTTTCAATCCTTTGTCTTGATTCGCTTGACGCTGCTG | 1380 a.u. |

Single results of other studies
| Substance | target | assay | test system | conditions | scale | endpoint | result |
| --- | --- | --- | --- | --- | --- | --- | --- |
| PhoQ, residues 284 288 289 292 302 303 SMYGEC | PhoP, residues 12 14 15 18 19 QWHVF (Escherichia coli, UniProt P23836) | Sort-seq, measured: YFP reporter | E. coli | PhoQ-PhoP variant library, with: 10 µM Mg2+ | reference: high Mg2+ state, higher = stronger signaling | fold induction | 2.11 |
